{"data": "Experimental data gathered from unrelated publications", "organism": "Mycobacterium tuberculosis", "note": "Compare with care: the assays were run in different laboratories."}
{"Structure (SMILES)": "C#CCN(Cc1ccc2[nH]cnc(=O)c2c1)c1ccc(C(=O)N[C@@H](CCC(=O)O)C(=O)O)cc1", "system": "pptT knockdown without ATc", "MIC90": "> 100 µM"}
{"Structure (SMILES)": "COc1cc(NC(=O)CN(C)S(=O)(=O)c2cc(C)cnc2N)ccn1", "assay": "microbial growth", "system": "H37RV", "setting": "10 days", "MIC90": "> 100 µM"}
{"Structure (SMILES)": "O=C(NCCOCCO)c1cn(Cc2ccccc2)c2cc(OCc3ccc(C(F)(F)F)cc3)c(Cl)cc2c1=O", "MIC90": "> 125 µM"}
{"Structure (SMILES)": "Cc1cnc(N)c(S(=O)(=O)N(C)CC(=O)Nc2ccc(C#N)c(Cl)c2)c1", "assay": "microbial growth", "system": "H37RV", "setting": "10 days", "MIC90": "> 100 µM"}
{"Structure (SMILES)": "Cc1nc(=O)c2cc(CN(C)c3ccc(C(=O)NCCCC(=O)O)s3)ccc2[nH]1", "assay": "microbial growth", "system": "H37RV", "MIC90": "> 100 µM"}
{"Structure (SMILES)": "O=C(NCCNCCO)c1cn(Cc2ccccc2)c2cc(Cl)c(OCc3cccc(Cl)c3)cc2c1=O", "MIC90": "8 to 125 µM"}
{"Structure (SMILES)": "Cc1[nH]c(=O)c(CNC(=O)c2ccc(C(F)(F)F)nc2)c2c1CCCC2", "assay": "microplate Alamar Blue", "system": "H37Rv", "MIC90": "1.2 µg/mL"}
{"Structure (SMILES)": "COC(=O)[C@@H](CCCNC(=O)OC(C)(C)C)NC(=O)c1ccc(NCc2ccc3nc(N)nc(N)c3c2Cl)cc1", "assay": "microbial growth", "system": "H37RV", "MIC90": "< 0.1 µM"}
{"Structure (SMILES)": "CCc1nc2ccc(Cl)cn2c1C(=O)NC/C=C(\\C)CC/C=C(\\C)CCC=C(C)C", "assay": "microbial growth", "system": "H37RV", "MIC90": "> 10 µM"}
{"Structure (SMILES)": "O=C(NCCNCCO)c1cn(Cc2ccc(F)cc2)c2cc(Cl)c(OCc3ccc(C(F)(F)F)cc3)cc2c1=O", "MIC90": "3 to 6 µM"}
{"Structure (SMILES)": "COc1ccc(NC(=O)CN(C)S(=O)(=O)c2cc(C)cnc2N)cn1", "assay": "microbial growth", "system": "H37RV", "setting": "10 days", "MIC90": "> 100 µM"}
{"Structure (SMILES)": "CN[C@@H]1[C@H](O)[C@H](NC)[C@H]2O[C@]3(O)[C@H](O[C@@H]2[C@H]1O)O[C@H](C)C[C@H]3NC(=O)Cc1cc(Cl)ccn1", "system": "MDR and XDR isolates", "MIC90": "1.8 µg/mL"}
{"Structure (SMILES)": "O=C(NCCNCCO)c1cn(Cc2cccc(Br)c2)c2cc(Cl)c(OCc3ccc(C(F)(F)F)cc3)cc2c1=O", "MIC90": "3 to 5 µM"}
{"Structure (SMILES)": "CN[C@@H]1[C@H](O)[C@H](NC)[C@H]2O[C@]3(O)[C@H](O[C@@H]2[C@H]1O)O[C@H](C)C[C@H]3NC(=O)Cc1ccc(F)cn1", "system": "MDR and XDR isolates", "MIC90": "3.8 µg/mL"}
{"Structure (SMILES)": "CCOC(=O)CC[C@@H](NC(=O)c1ccc(N(C)Cc2ccc3[nH]c(C)nc(=O)c3c2)s1)C(=O)OCC", "assay": "microbial growth", "system": "H37RV", "MIC90": "80.3 µM"}
{"Structure (SMILES)": "CN1C/C(=C\\c2ccccc2)C2=NN(C(N)=S)[C@H](c3ccccc3)[C@@H]2C1", "system": "H37Rv, Sauton's medium", "setting": "with: biotin 1 µM", "MIC90": "> 200 µg/mL"}
{"Structure (SMILES)": "COc1ccc(NC(=O)CN(C)S(=O)(=O)c2cc(C)cnc2N)cc1Cl", "system": "H37Rv", "MIC90": "> 100 µM"}
{"Structure (SMILES)": "Cc1nc2ccc(CN(C)c3ccc(C(=O)N[C@@H](CCC(=O)O)C(=O)O)s3)cc2c(=O)[nH]1", "assay": "microbial growth", "system": "H37RV", "MIC90": "> 100 µM"}
{"Structure (SMILES)": "Cc1cnc(N)c(S(=O)(=O)N(C)CC(=O)Nc2ccc(=O)n(C)c2)c1", "assay": "microbial growth", "system": "H37RV", "setting": "10 days", "MIC90": "> 100 µM"}
{"Structure (SMILES)": "C#CCN(Cc1ccc2nc(N)nc(N)c2c1)c1ccc(C(=O)N[C@@H](CCC(=O)O)C(=O)O)cc1", "assay": "microbial growth", "system": "H37RV", "MIC90": "5 µM"}
{"Structure (SMILES)": "Cc1cc(Nc2nc(N3CC[C@@H](c4ccncc4)C3)ncc2F)[nH]n1", "assay": "microbial growth", "system": "H37RV", "MIC90": "0.11 µM"}
{"Structure (SMILES)": "Cc1cnc(N)c(S(=O)(=O)N(C)CC(=O)Nc2ccc(OCCN(C)C)c(Cl)c2)c1", "assay": "microbial growth", "system": "H37RV", "setting": "10 days", "MIC90": "> 100 µM"}
{"Structure (SMILES)": "CC(C)(C)OC(=O)NCCC[C@H](NC(=O)c1ccc(NCc2ccc3nc(N)nc(N)c3c2Cl)cc1)C(=O)O", "assay": "microbial growth", "system": "H37RV", "MIC90": "0.07 µM"}
{"note": "Excerpt of the above:"}
{"Structure (SMILES)": "COc1ccc(NC(=O)CN(C)S(=O)(=O)c2cc(C)cnc2N)cc1Cl", "system": "H37Rv", "MIC90": "> 100 µM"}
{"Structure (SMILES)": "Cc1nc2ccc(CN(C)c3ccc(C(=O)N[C@@H](CCC(=O)O)C(=O)O)s3)cc2c(=O)[nH]1", "assay": "microbial growth", "system": "H37RV", "MIC90": "> 100 µM"}
{"Structure (SMILES)": "Cc1cnc(N)c(S(=O)(=O)N(C)CC(=O)Nc2ccc(=O)n(C)c2)c1", "assay": "microbial growth", "system": "H37RV", "setting": "10 days", "MIC90": "> 100 µM"}
